Published values from different studies.
Each line is one published result; not all experiments were run side by side. Several values in a cell are separate wells, animals, samples, runs or records. ± marks the error that the study gave.

| SMILES | cell line | test | system | setting | how to read | endpoint | result |
| --- | --- | --- | --- | --- | --- | --- | --- |
| CN1CCN(C2(CNC3CCN(c4cccc(-c5cc6cc(F)ccc6[nH]5)c4)CC3)CCC2)CC1 | HOP-62 |  |  |  |  | CC50 | 7.31 µM |
| Cc1n[nH]c(C)c1CSCc1ccccc1 | U-937 | cytotoxicity |  |  | reference: IC50 HEK293 over IC50 U-937 | selectivity index | 1.4 |
| CC[C@H](C)[C@H](NC(=O)CNC(=O)[C@@H](N)CCCCN)C(=O)N[C@@H](CC(C)C)C(=O)N[C@@H](CCCCN)C(=O)N[C@@H](CCCNC(=N)N)C(=O)N[C@@H](CCC(=O)O)C(=O)N[C@@H](CCCCN)C(=O)N[C@@H](CCCNC(=N)N)C(=O)N[C@@H](CC(C)C)C(=O)N[C@@H](CCCNC(=N)N)C(=O)N[C@@H](CCCNC(=N)N)C(=O)N[C@@H](CCCCN)C(=O)N[C@@H](CC(N)=O)C(=O)N[C@H](C(=O)N[C@@H](Cc1c[nH]cn1)C(=O)N[C@@H](Cc1c[nH]c2ccccc12)C(=O)N1CCC[C@H]1C(=O)N[C@@H](CCC(=O)O)C(=O)N[C@@H](CCC(=O)O)C(=O)NCC(=O)N[C@@H](CCCCN)C(=O)N[C@@H](CC(C)C)C(=O)N[C@@H](CCCNC(=N)N)C(=O)N[C@@H](CCC(=O)O)C(=O)N[C@@H](Cc1ccccc1)C(=O)N[C@@H](Cc1ccccc1)C(=O)N[C@@H](Cc1ccccc1)C(=O)N[C@@H](Cc1ccccc1)C(=O)N[C@@H](CCC(=O)O)C(=O)N[C@@H](CC(C)C)C(=O)N[C@@H](CC(=O)O)C(=O)N[C@@H](CCC(=O)O)C(=O)N[C@@H](C)C(=O)N[C@@H](CCC(=O)O)C(=O)N[C@@H](CCCNC(=N)N)C(=O)N[C@H](C(=O)N[C@@H](CC(N)=O)C(=O)N[C@H](C(=O)O)C(C)C)C(C)C)C(C)C | HeLa (mitotic) | protein phosphorylation, TMT phosphoproteomics, item: CDC5L Ser42 | cell lysate | concentration not given, 15 min | reference: treated over control | log2 fold change | 3.32 |
| C[C@H]1COCCN1c1nc(NCc2cccnc2C(F)(F)F)c2cccnc2n1 | cardiomyocytes | cellular ATP level |  | in vitro toxicology |  | IC50 | > 100 µM |
| COc1cc([C@@H]2c3cc4c(cc3C[C@H]3COC(=O)[C@@H]32)OCO4)cc(OC)c1OC | neuroblastoma M2 (+) | western blot |  | IC50 | reference: untreated | PARP cleavage | increased |
| O=C1CCP(=[Se])(c2ccccc2)CC1 | HCT-116 | MTT |  | 72 h | reference: IC50 HaCaT over IC50 HCT-116 | selectivity index | 1 |
| CN1C(=O)[C@@]23C[C@]4([C@]56C[C@@]78SS[C@@](CO)(C(=O)N7[C@H]5Nc5ccccc56)N(C)C8=O)c5ccccc5N[C@@H]4N2C(=O)[C@]1(CO)SS3 | OCI-Ly1 |  |  | 0.1 µM, 120 h |  | viability | 1.07% |
| O=C1CCP(c2ccccc2)CC1 | HCT-116 | MTT |  | 72 h | reference: IC50 HaCaT over IC50 HCT-116 | selectivity index | 0.7 |
| CC(C)N1CCC(NC2CCN(c3cccc(-c4cc5cc(F)ccc5[nH]4)c3)CC2)CC1 | HOP-92 |  |  |  |  | GI50 | 1.2 µM |
| Cc1cnc2ccc3c(nc(N)n3C)c2n1 | BALB/c 3T3 | colony formation |  | 100 µM |  | plating efficiency | 44% |
| CCN(CC)c1ccc(C=NNC(=O)CSc2nc3ccccc3c(=O)n2Cc2ccc(S(N)(=O)=O)cc2)c(O)c1 | M14 | NCI five-dose screen |  |  |  | CC50 | > 100 µM |
| COc1cc(C(=O)c2c[nH]c3cc(-c4cccc(O)c4)ccc23)cc(OC)c1OC | MDA-MB-231 | scratch |  | 200 nM, 72 h |  | wound confluence | ~0% |
| COc1ccc([C@H]2c3[nH]c4ccc(Cl)cc4c3CCN2C(=O)Oc2ccc(Cl)cc2)cc1 | human dermal fibroblasts with PBMC | cytokine secretion, item: MMP-1 |  | 0.1 µM, 48 h |  | inhibition | 23% |
| O=C1N(Cc2ccccc2Cl)c2ccccc2C12NN=C(c1ccccc1)S2 (stereo not drawn) | MDA-MB-468 | gene expression array, item: EIF4A2 mRNA |  | 10 µM, 12 h | reference: untreated, down | fold change | 1.61 |
| Nc1ncc(-c2nc(N3CCOCC3)nc(N3CCOCC3)n2)c(C(F)F)n1 | A-427 |  |  | 72 h |  | GI50 | 0.121 µM |
| COc1c(CCC[P+](c2ccccc2)(c2ccccc2)c2ccccc2)cc2c(c1OC)OCO2.[I-] | SN12C | SRB |  |  |  | LC50 | -4.37 log M |
| Nc1ncnc2c1ncn2[C@@H]1O[C@@H]2COP(=O)(O)O[C@H]3[C@@H](O)[C@H](n4cnc5c(=O)[nH]cnc54)O[C@@H]3COP(=O)(O)O[C@H]2[C@H]1O | HFF-1 | RNA sequencing, item: Muscle contraction |  | downregulated pathway | reference: Zika virus alone | pathway fold enrichment | 4.73 |
| CCC(=O)CCCCC[C@@H]1NC(=O)[C@H]2CCCCN2C(=O)[C@H]([C@@H](C)CC)NC(=O)[C@H](Cc2cn(OC)c3ccccc23)NC1=O | OCI-Ly1 |  |  | 1 µM, 120 h |  | viability | 1.79% |
| Oc1cc(Cl)ccc1Oc1ccc(Cl)cc1Cl | HepG2 | item: NF-κB nuclear translocation |  | 24 h, distribution mode 1 |  | point of departure | 1.78 µM |
| N.N.[Cl][Pt][Cl] | SGC-7901 | CCK-8 |  | glutamine deficiency |  | IC50 | 12.1 µM |
| Oc1ccc(C(c2ccc(O)cc2)(C(F)(F)F)C(F)(F)F)cc1 | HepG2 spheroids | planimetry |  | 2.5 µM, 0 to 24 h | reference: mean area of 72 h spheroids | spheroid area increase | 126% |
| C/C=C(/C)C(=O)O[C@H]1C(C)=C2[C@H]([C@@H]1OC(=O)CCCCCCC)[C@@](C)(OC(C)=O)C[C@H](OC(=O)CCC)[C@@]1(O)[C@H]2OC(=O)[C@@]1(C)O | HEK293T | RNA-seq, item: HSP90AA1 mRNA |  | 10 µM, 6 h | reference: vehicle | log2 fold change | -0.414 |
| Cn1cc2cc(C(F)(F)c3nnc4ccc(-c5cnn(C6CC6)c5)nn34)c(F)cc2n1 | MKN-45 | annexin V/PI flow cytometry |  | 20 nM, 48 h |  | late apoptotic cells | 29.6% and 20.5% and 27.3% |
| COc1ccc2c(c1)[nH]c1c(C)nccc12 | DU-145 | bisulfite pyrosequencing, item: RASSF1A promoter CpG site 17 |  | concentration not given | reference: vehicle | methylation reduction | 1.9% |
| Cn1cncc1C1=CN(c2ncnc3[nH]cnc23)CCS1 | EKVX |  |  | lung cancer |  | CC50 | > 200 µM |
| COc1c(C)c2c(c(O)c1C/C=C(\C)CCC(=O)O)C(=O)OC2 | SK-N-AS | cell proliferation |  |  |  | IC50 | 3.24 µM |
| C[C@]12CC[C@H](O)C[C@H]1CC[C@@H]1[C@@H]2CC[C@]2(C)[C@@H](c3ccc(=O)oc3)CC[C@]12O | MCF7 | RT-qPCR, item: PGR |  | 50 nM, 48 h, unit not given, added: estradiol | reference: untreated | mRNA level | 0.933 and 0.819 and 0.983 |
| Cn1nccc1Nc1nccc(-c2cc3c(s2)C(C)(C)N(CCN2CCOCC2)C3=O)n1 | HCT116 | IncuCyte |  | concentration not given, 20 (unit not given) |  | PI-positive cells | 5.83 count and 7.33 count and 5.17 count |
| COc1cc(CCC[P+](c2ccccc2)(c2ccccc2)c2ccccc2)c(OC)c2c1OCO2.[I-] | SK-MEL-5 | SRB |  |  |  | GI50 | -5.92 log M |
| Cc1cc(C(C)(C)c2ccc(O)c(C)c2)ccc1O | HepG2 spheroids | Hoechst flow cytometry |  | 40 µM, 24 h |  | S phase cells | 6.85 ± 1.24% |

For quick reference, copied from above:
| SMILES | cell line | test | system | setting | how to read | endpoint | result |
| --- | --- | --- | --- | --- | --- | --- | --- |
| C[C@H]1COCCN1c1nc(NCc2cccnc2C(F)(F)F)c2cccnc2n1 | cardiomyocytes | cellular ATP level |  | in vitro toxicology |  | IC50 | > 100 µM |
| COc1cc([C@@H]2c3cc4c(cc3C[C@H]3COC(=O)[C@@H]32)OCO4)cc(OC)c1OC | neuroblastoma M2 (+) | western blot |  | IC50 | reference: untreated | PARP cleavage | increased |
